Results gathered from unrelated publications.
Each numbered part is a random draw from the data of one study; scales do not carry over between parts. Changes are numbered by the printed parent chain.

Sample 1
Target: Sal-like protein 4, full length isoform B (SALL4, Homo sapiens, UniProt Q9UJQ4-2, residues 1-616)
Method: universal PBM
Form: double-stranded DNA, one strand shown
Matrix: in vitro
Tested at: not given
Setting: 8-mer, flanks averaged, mean of replicates
Reading: higher = stronger binding
Residues (chain): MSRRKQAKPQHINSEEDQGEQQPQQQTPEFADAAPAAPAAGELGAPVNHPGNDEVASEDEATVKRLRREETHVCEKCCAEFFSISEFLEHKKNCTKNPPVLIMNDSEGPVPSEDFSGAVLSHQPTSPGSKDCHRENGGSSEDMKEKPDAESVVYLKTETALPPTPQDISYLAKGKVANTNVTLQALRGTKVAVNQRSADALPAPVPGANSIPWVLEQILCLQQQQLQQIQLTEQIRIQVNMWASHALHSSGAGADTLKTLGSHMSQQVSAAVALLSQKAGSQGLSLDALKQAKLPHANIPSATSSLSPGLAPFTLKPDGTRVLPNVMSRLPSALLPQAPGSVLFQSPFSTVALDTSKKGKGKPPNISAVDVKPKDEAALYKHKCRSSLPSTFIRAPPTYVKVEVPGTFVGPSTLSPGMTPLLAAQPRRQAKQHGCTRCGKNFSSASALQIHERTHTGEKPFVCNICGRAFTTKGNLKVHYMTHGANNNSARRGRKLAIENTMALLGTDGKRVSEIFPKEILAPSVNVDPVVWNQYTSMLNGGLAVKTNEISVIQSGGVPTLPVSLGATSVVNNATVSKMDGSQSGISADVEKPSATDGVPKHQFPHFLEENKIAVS
The E-score of `GCACCCGA` is reported as -0.393.
`GCTGCAGA` gave an E-score of -0.181.
For `AACCTTAC`, the E-score was 0.181.
`GTCCTGCA` gave an E-score of -0.128.
The E-score of `ACTAATGA` is reported as 0.245.
With `AGTAAATC` the E-score was 0.139.
`AATGTCAA` gave an E-score of 0.206.
`AAGAGAGC` has an E-score of -0.174.
The E-score of `AAACGTCC` is reported as 0.0326.
`AAAGCCCT` has an E-score of -0.0499.
With `GCTAACAC` the E-score was -0.171.
`ACACGAGA` gave an E-score of -0.116.
With `ACGTGGGA` the E-score was -0.194.
The E-score of `ACACGAAC` is reported as -0.0655.
`GCACGCCC` gave an E-score of -0.339.
The E-score of `GAGGCTAA` is reported as 0.0641.
For `ACGCAGGA`, the E-score was -0.105.
For `TATGTCAA`, the E-score was 0.358.
For `CCTTATCG`, the E-score was 0.175.
For `ACAATCGG`, the E-score was -0.0182.
The E-score of `CGTAAGGA` is reported as 0.0604.
The E-score of `GAGAATTA` is reported as 0.246.
For `AGAATGGC`, the E-score was -0.035.
`CTCTGTGA` has an E-score of -0.0813.

Sample 2
Target: ABI1, truncated, D143A, DHFR fusion (Arabidopsis thaliana)
Method: DHFR PCA, deep sequencing
Matrix: yeast
Setting: methotrexate growth selection, single substitutions
Added: (+)-ABA 0.032 µM
Baseline: wild-type fitted maximum
Reading: higher = stronger binding
Parent: PYL1, truncated, DHFR fusion (Arabidopsis thaliana); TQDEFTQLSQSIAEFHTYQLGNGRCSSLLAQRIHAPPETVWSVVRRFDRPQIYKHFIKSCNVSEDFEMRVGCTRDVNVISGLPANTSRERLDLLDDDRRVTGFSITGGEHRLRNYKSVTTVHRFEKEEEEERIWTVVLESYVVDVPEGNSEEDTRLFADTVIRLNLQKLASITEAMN
`Y53H`: “relative binding score” 7.23%.
Under “relative binding score”, `R113I` is recorded as 19.4%.
`R155S`: “relative binding score” 0.273%.
For `S26N`, “relative binding score” read -5.19%.
For `E109D`, “relative binding score” read 86%.
`Q51N` — result for “relative binding score”: 1.28%.
`V145R`: “relative binding score” -5.74%.
`S87E` — result for “relative binding score”: -4.12%.
Under “relative binding score”, `T73G` is recorded as -3.31%.
For `A158K`, “relative binding score” read -8.84%.
For `R24V`, “relative binding score” read 13.5%.
`R45D` — result for “relative binding score”: 1.68%.
Under “relative binding score”, `R155G` is recorded as -6.62%.
Under “relative binding score”, `E109K` is recorded as 1.83%.
Under “relative binding score”, `V121T` is recorded as 1.6%.
Under “relative binding score”, `M176L` is recorded as 9.58%.
For `V161G`, “relative binding score” read -5.71%.
For `T106P`, “relative binding score” read 2.43%.
`N165A`: “relative binding score” 3.65%.
Under “relative binding score”, `D144K` is recorded as 0.88%.

Sample 3
Target: UBE2Z UBC core domain (UniProt Q9H832)
Method: yeast two-hybrid
Matrix: yeast
Setting: mostly zero background
Baseline: not given
Reading: higher = stronger interaction
B1: TRIM69 RING domain (UniProt Q86WT6); chain VIQDITMELHCPLCNDWFRDPLMLSCGHNFCEACIQDFWRLQAKETFCPECKMLCQYNNCTF
B2: TRIM63 RING domain (UniProt Q969Q1); chain PMENLEKQLICPICLEMFTKPVVILPCQHNLCRKCANDIFQAANPYWTSRGSSVSMSGGRFRCPTCRHEVIMDRHGV
B3: IRF2BPL RING domain (UniProt Q9H1B7); chain SPMANSGPLCCTICHERLEDTHFVQCPSVPSHKFCFPCSRESIKAQGATGEVYCPSGEKCPLVGSNVP
B4: TRIM8 RING domain (UniProt Q9BZR9); chain WKNCFEEELICPICLHVFVEPVQLPCKHNFCRGCIGEAWAKDSGLVRCPECNQAYNQKPGLE
B5: PHF21A RING domain (UniProt Q96BD5); chain SPTSTDGDIHEDFCSVCRKSGQLLMCDTCSRVYHLDCLDPPLKTIPKGMWICPRCQDQMLKKEEAIPW
Construct (chain): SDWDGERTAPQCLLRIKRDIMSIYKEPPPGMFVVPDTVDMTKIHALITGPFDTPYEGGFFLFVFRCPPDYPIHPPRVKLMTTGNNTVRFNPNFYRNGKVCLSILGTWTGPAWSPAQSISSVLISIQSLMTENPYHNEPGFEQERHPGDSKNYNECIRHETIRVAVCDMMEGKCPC
`KTLSRFGIQPCSICLGDAKDPVCLPCDHVHCLRCLRAWFASEQMICPYCLTALPDEFSPA (RNF213 RING domain (UniProt Q63HN8))` — result for “lacZ reporter activity”: 0.
Under “lacZ reporter activity”, `B1 (TRIM69 RING domain)` is recorded as 0.
Under “lacZ reporter activity”, `B2 (TRIM63 RING domain)` is recorded as 0.
`B3 (IRF2BPL RING domain)`: “lacZ reporter activity” 9990.
`B4 (TRIM8 RING domain)`: “lacZ reporter activity” 0.
For `EDEVSDNSAECVVCLSDVRDTLILPCRHLCLCNTCADTLRYQANNCPICRLPFRALLQIR (RNF157 RING domain (UniProt Q96PX1))`, “lacZ reporter activity” read 0.
`QLQDIKEQTMCPVCLDRLKNMIFLCGHGTCQLCGDRMSECPICRKAIERRILLY (MIB1 RING domain (UniProt Q86YT6))`: “lacZ reporter activity” 0.
`DDENSDNSNECVVCLSDLRDTLILPCRHLCLCTSCADTLRYQANNCPICRLPFRALLQIR (MGRN1 RING domain (UniProt O60291))` — result for “lacZ reporter activity”: 0.
Under “lacZ reporter activity”, `YWAMDSTFELCKICAESNKDVKIEPCGHLLCSCCLAAWQHSDSQTCPFCRCEIKGWEAVS (CBLC RING domain (UniProt Q9ULV8))` is recorded as 0.
For `B5 (PHF21A RING domain)`, “lacZ reporter activity” read 0.

Sample 4
Target: CCNE1, cyclin fold, Cln2 fusion (human)
Method: yeast growth competition, sequencing
Matrix: yeast
Setting: strong parent motif
Baseline: not given
Reading: higher = stronger binding
Parent: CDKN1A docking peptide (human); SKACRRLFGPVDS; partner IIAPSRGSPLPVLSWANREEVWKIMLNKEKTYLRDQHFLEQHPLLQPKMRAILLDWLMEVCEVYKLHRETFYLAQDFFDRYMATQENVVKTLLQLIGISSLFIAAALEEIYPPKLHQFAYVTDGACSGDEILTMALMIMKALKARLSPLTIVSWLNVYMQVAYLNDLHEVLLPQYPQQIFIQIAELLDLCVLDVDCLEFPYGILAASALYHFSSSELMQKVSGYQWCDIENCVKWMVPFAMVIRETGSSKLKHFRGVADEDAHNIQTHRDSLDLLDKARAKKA
`K2Y` — result for “normalised enrichment score”: 4.51.
`L7K` — result for “normalised enrichment score”: 0.129.
`R5T`: “normalised enrichment score” 0.275.
`A3M` — result for “normalised enrichment score”: 0.955.
`D12Y` — result for “normalised enrichment score”: 4.12.
For `F8Q`, “normalised enrichment score” read 0.207.
`F8S`: “normalised enrichment score” 0.204.
`K2N`: “normalised enrichment score” 6.15.
`V11M` — result for “normalised enrichment score”: 5.44.
Under “normalised enrichment score”, `G9I` is recorded as 5.26.
`R5P` — result for “normalised enrichment score”: -0.0228.
`C4P` — result for “normalised enrichment score”: 0.236.
`D12W`: “normalised enrichment score” 3.16.
`R6M`: “normalised enrichment score” 3.88.
Under “normalised enrichment score”, `K2H` is recorded as 5.77.
`R6P` — result for “normalised enrichment score”: 0.408.
`C4D` — result for “normalised enrichment score”: 0.59.
`P10Q` — result for “normalised enrichment score”: 4.48.
`V11Q` — result for “normalised enrichment score”: 5.9.

Sample 5
Target: RING finger protein unkempt homolog, zinc fingers 1-6, SBP tag (UNK, Homo sapiens, UniProt Q9C0B0, residues 30-357)
UniProt Q9C0B0, sequence (30-357, looked up): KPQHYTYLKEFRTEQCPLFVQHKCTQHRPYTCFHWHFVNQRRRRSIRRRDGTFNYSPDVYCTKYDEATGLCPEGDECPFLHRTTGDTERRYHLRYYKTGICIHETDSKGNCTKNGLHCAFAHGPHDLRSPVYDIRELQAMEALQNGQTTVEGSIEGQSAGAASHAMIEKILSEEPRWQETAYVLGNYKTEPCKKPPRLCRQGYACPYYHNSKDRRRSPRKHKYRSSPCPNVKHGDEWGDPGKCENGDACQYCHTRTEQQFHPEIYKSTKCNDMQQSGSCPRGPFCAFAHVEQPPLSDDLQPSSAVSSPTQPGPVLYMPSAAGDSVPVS
Method: RNA Bind-n-Seq
Form: RNA
Matrix: in vitro
Tested at: 100 nM
Setting: RNA with constant flanks, vertebrate orthologous sites, ends assumed
Baseline: input RNA pool
Reading: higher = stronger binding
All sequences stand within: GGGAGUUCUACAGUCCGACGAUC … CAACAGAGGAUUGAGCAUCA
For `ACCCCCUCCCUGGUGAGAGGGAGUGGGGGGAGCUCAGGAUGACCCUCAGCUGUUCCAAUCCAGUAUUUUUUUUUCUUUUUCAAAAUUACUGUAUUUAUUAUGACGAUGGUGACUCCCCGG`, the bound/input enrichment was 0.703 ratio.
`AAAGAUUGGGUUCCAGUCAAAUGAGCUGGCAUUGUACAGAAAAUCACAGCCAAUCUUAGAAUUUUUUUUUCGCAGUCUGACCAGGGAAAAGAUAAAAUGCAUUGUAUUAAAUAUGUAAGC` gave a bound/input enrichment of 0.875 ratio.
`UGGGUUACUCCUAUUAUUAUCAAGUAGCUGGAAUUGUGAAGGUCGGAGUAGUUAGAUCUUUAGCUUUUAUUCCUUAUUUUUUUUUGUAUUACUAUCCAUGUGUAUAAAUUAUUGAUCAUG` has a bound/input enrichment of 4.61 ratio.
For `CAGGGAUGGCCCUAAUCCCACCUCUGUUUAUUCUGUAAACUACAACCUGUAAAUAAUGUUUAGCAUUCCUAUUGUAACAAAAUUAAUUUUUAUGAAAUAAAUUAUAUUUCCUAGUCUAAU`, the bound/input enrichment was 1.29 ratio.
`UUAAUUAGAAGGUAGUAUGUGUUUCAUAAAGAAAAGUCUUUAUAAUUUUUGUUUGUCAUGUAGUAUUUUGGAAUUUGUAUAAUGAGGACGUUUAGAAGCCAUAUCAAUGGCUUUUUUUAC` has a bound/input enrichment of 0.252 ratio.
With `GGGACGCUUUGAGGUAAAAAUUUUAAUUAAGAGCUGAUCACAAGCACAAAUCUUUCCCACUAGCCAUUUAAUAAGUUAAAAAAGAUACACAAACCUACUAGUCUUGAACAAACUGUCAUA` the bound/input enrichment was 2.01 ratio.
The bound/input enrichment of `UGUCGGGGGAGCCGGCGGAGUGGCGCUCUCCUCUCACUGUCCUUUCCUGGCUUCGCUUUUCUCGGGCGGGCCUGGGGUUGUGGCGCCCACUGACCCUGAGGCACGAGCUCUUGUGGUUCA` is reported as 0.163 ratio.
The bound/input enrichment of `UCCCAGCACUCUGAUAAAAAGUGUGGACUGGUUGCUUGUAUUUUCGUUAUUCUUUUUAAUUAGUUUUAUUAUGUAUGCUACCAUUCGAACUGAGAGCAUUCGGUGGCUAAUUCCAGGACA` is reported as 1.9 ratio.

Some of these lines once more (sample 1):
The E-score of `AAACGTCC` is reported as 0.0326.
`AAAGCCCT` has an E-score of -0.0499.
With `GCTAACAC` the E-score was -0.171.
`ACACGAGA` gave an E-score of -0.116.
With `ACGTGGGA` the E-score was -0.194.
The E-score of `ACACGAAC` is reported as -0.0655.
`GCACGCCC` gave an E-score of -0.339.
The E-score of `GAGGCTAA` is reported as 0.0641.
For `ACGCAGGA`, the E-score was -0.105.
For `TATGTCAA`, the E-score was 0.358.
For `CCTTATCG`, the E-score was 0.175.
